{"data": "Published values of several laboratories", "note": "Compare with care: the assays were run in different laboratories. “And” joins repeats or separate records; there may be more than shown. ± marks the error that the study gave."}
{"Structure (SMILES)": "CC1CCN(Cc2ccc(/C=C/C(=O)c3ccc(Cl)cc3)cc2O)CC1", "cell line": "WRL68", "test": "cell growth or viability, MTT", "conditions": "72 h", "IC50": "14.8 µM"}
{"Structure (SMILES)": "CCCOc1ccc(/C=C(\\C(=O)c2cc(C)[nH]c(=O)c2C(=O)N2CCCCC2)c2ccc(OCCC)cc2)cc1", "cell line": "human Fibroblast", "test": "cell growth or viability, MTT", "conditions": "72 h", "IC50": "> 10 µM"}
{"Structure (SMILES)": "O=C(O)c1cc(O)c2c(c1)C(=O)c1cccc(O)c1C2=O", "cell line": "CCRF-CEM", "test": "cell growth or viability, ATP luminescence", "conditions": "24 h", "IC50": "140 µM"}
{"Structure (SMILES)": "C=CC(C)(O)Cc1cc2cc(-c3ccc(O)cc3O)c(=O)oc2cc1O (stereo not drawn)", "cell line": "Hepa1c1c7", "test": "cell growth", "IC50": "> 100 µM"}
{"Structure (SMILES)": "COc1ccc(-c2c3n(c4c(=O)[nH]nc(O)c24)CCn2cccc2-3)cc1", "cell line": "PANC-1", "test": "cell growth or viability, MTT", "conditions": "48 h", "IC50": "60 µM"}
{"Structure (SMILES)": "COc1cccc2c1C(=O)c1c(O)c3c(c(O)c1C2=O)C[C@@](O)(C(=O)CO)C[C@@H]3O[C@H]1C[C@H](N)[C@@H](O)[C@H](C)O1", "cell line": "HCT-15/ADM2-2", "test": "cell growth, XTT", "conditions": "72 h", "IC50": "8.55 µg/mL"}
{"Structure (SMILES)": "Cc1ccc2nc(NCCN)c3ncc(C)n3c2c1", "cell line": "MGC-803", "test": "cell growth or viability, MTT", "conditions": "72 h", "IC50": "13.3 µM"}
{"Structure (SMILES)": "O=c1[nH]nc(O)c2c(-c3ccc(Cl)cc3)c3n(c12)CCn1cccc1-3", "cell line": "PANC-1", "test": "cell growth or viability, MTT", "conditions": "48 h", "IC50": "47 µM"}
{"Structure (SMILES)": "COc1ccc2oc(C(=O)c3cc(OC)c(OC)c(OC)c3)c(NC(=O)CBr)c2c1", "cell line": "L1210", "test": "cell growth or viability", "conditions": "24 h", "IC50": "53 µM"}
{"Structure (SMILES)": "Cc1cc2c(cc1Cl)N(C(=O)Nc1ccc(Oc3cccnc3C)nc1)CC2", "cell line": "HEK293T ERR reporter line", "test": "cell viability, qHTS", "IC50": "26.6 µM"}
{"Structure (SMILES)": "Cc1cc(C2CCCCC2)n(O)c(=O)c1", "cell line": "NIH3T3", "test": "resazurin", "conditions": "125 cells per well", "IC50": "3.23 ± 0.485 µM"}
{"Structure (SMILES)": "O=C(/C=C/c1ccc(O)c(CN2CCOCC2)c1)c1ccc(F)cc1", "cell line": "WRL68", "test": "cell growth or viability, MTT", "conditions": "72 h", "IC50": "16.1 µM"}
{"Structure (SMILES)": "COC(=O)c1c(-c2cccc(Br)c2)c2n(c1C(=O)OC)CCn1cccc1-2", "cell line": "PANC-1", "test": "cell growth or viability, MTT", "conditions": "48 h", "IC50": "65.7 µM"}
{"Structure (SMILES)": "Nc1cc(COc2c(Cl)cc(C[C@H](N)C(=O)O)cc2Cl)c2oc(-c3ccccc3)nc2c1", "cell line": "LN-229", "test": "cell growth or viability, ATP luminescence", "conditions": "6 days", "IC50": "15 µM"}
{"Structure (SMILES)": "COCc1c(C(C)C)nc(C(C)C)c(/C=C/[C@@H](O)C[C@@H](O)CC(=O)O)c1-c1ccc(F)cc1", "cell line": "PANC-1", "test": "cell growth, SRB", "conditions": "72 h, 10% FBS", "IC50": "35.3 µM"}
{"Structure (SMILES)": "CN(C)C/C=C/C(=O)Nc1cc2c(Nc3ccc(F)c(Cl)c3)ncnc2cc1O[C@H]1CCOC1", "cell line": "SK-OV-3 (HER2-positive)", "test": "cell viability, MTT", "conditions": "72 h", "IC50": "8.37 µM"}
{"Structure (SMILES)": "C=CCc1ccc(O)c(-c2ccc(O)c(CC=C)c2)c1", "cell line": "GM12878", "test": "cell proliferation, MTS", "conditions": "72 h, added: BLM 10 µM", "IC50": "100 µM"}
{"Structure (SMILES)": "COc1cc(C(=O)c2sc3cc(C)ccc3c2NC(=O)CBr)cc(OC)c1OC", "cell line": "L1210", "test": "cell growth or viability", "conditions": "24 h", "IC50": "0.24 µM"}
{"Structure (SMILES)": "Nc1ncnc2c1ncn2-c1ccc(/C=N/NC(=O)c2ccccc2O)cc1", "cell line": "PANC-1", "test": "cell growth or viability", "conditions": "72 h", "IC50": "> 10 µM"}
{"Structure (SMILES)": "c1cnc2ccc(Nc3nc(NC4CC4)c4nc[nH]c4n3)cc2c1", "cell line": "p110δ-positive AML cell lines", "test": "cell proliferation, MTT", "conditions": "72 h, mean of 11 cell lines", "IC50": "0.3 µM"}
{"Structure (SMILES)": "Cc1cc(Cl)n2nc3nc4ccccc4cc3c2n1", "cell line": "colon cancer lines", "test": "cell survival, MTT", "conditions": "sensitive lines, range", "IC50": "0.6 to 1 µM"}
{"Structure (SMILES)": "COc1ccc(C[C@H]2COC(=O)[C@@H]2Cc2ccc(OCC(=O)NCC(=O)Nc3ccccc3N)c(OC)c2)cc1OC", "cell line": "CCRF-CEM", "test": "cell growth or viability, CCK-8", "conditions": "48 h", "IC50": "> 5 µM"}
{"Structure (SMILES)": "O=c1[nH]nc(O)c2c(-c3cccc(Cl)c3)c3n(c12)CCn1cccc1-3", "cell line": "PANC-1", "test": "cell growth or viability, MTT", "conditions": "48 h", "IC50": "21.4 µM"}
{"Structure (SMILES)": "COc1cc(/C=C/C(=O)CC(=O)/C=C/c2ccc(O)c(OC)c2)ccc1O", "cell line": "Hs68", "test": "cell growth or viability, MTT", "conditions": "48 h", "IC50": "> 50 µg/mL"}
{"Structure (SMILES)": "Cc1ccc(C)n1-c1cccc(C(=O)O)c1", "cell line": "LAPC4", "test": "AR transcriptional activity, antagonist, PSA promoter luciferase", "conditions": "24 h", "IC50": "0.834 µM"}
{"Structure (SMILES)": "CN1CCC2(CC1)C/C(=N\\N=C\\c1ccc(O)cc1)c1ccccc1O2", "cell line": "MCF7, HCT-116, PC-3", "test": "cell growth, MTT", "conditions": "range over cell lines", "IC50": "1.15 to 10.1 µM"}
{"Structure (SMILES)": "COc1cc(C(=O)c2sc3ccccc3c2NC(=O)CCl)cc(OC)c1OC", "cell line": "L1210", "test": "cell growth or viability", "conditions": "24 h", "IC50": "0.46 µM"}
{"Structure (SMILES)": "COC(=O)c1c(-c2ccc(Cl)cc2)c2n(c1C(=O)OC)CCn1cccc1-2", "cell line": "PANC-1", "test": "cell growth or viability, MTT", "conditions": "48 h", "IC50": "73.9 µM"}
{"Structure (SMILES)": "O=C(Nc1ccc(Cl)c([N+](=O)[O-])c1)Nc1nc2ccccc2s1", "cell line": "LN-229", "test": "cell growth or viability", "conditions": "5 days", "IC50": "2.3 µM"}
{"Structure (SMILES)": "CC1(C)C2CCC(CN=C(N)CSS(=O)(=O)O)C1C2 (stereo not drawn)", "cell line": "K562, inducible U2AF1 S34F", "test": "cell viability, trypan blue", "conditions": "5 d", "IC50": "~5 µM"}
{"Structure (SMILES)": "Cc1ccc(C(C)C)cc1.Cc1ccc(C(C)C)cc1.[Cl][Ru][Cl].[Cl][Ru][Cl]", "cell line": "NALM-6", "test": "cell growth or viability, MTT", "conditions": "48 h", "IC50": "374 µM"}
{"Structure (SMILES)": "O=C(O)C=Cc1cc(O)ccc1O", "cell line": "LAPC4", "test": "AR transcriptional activity, antagonist, PSA promoter luciferase", "conditions": "24 h", "IC50": "1.14 µM"}
{"Structure (SMILES)": "CC(C)=CCc1c(O)c(CC=C(C)C)c2oc3c(O)cccc3c(=O)c2c1O", "cell line": "H1L6.1c3", "test": "cell viability, MTT", "IC50": "36 ± 1.7 µM"}
{"Structure (SMILES)": "Clc1ccc2cc(-c3ccccc3)[nH]c2c1", "cell line": "HEK293 NF-κB luciferase reporter", "test": "reporter gene, item: NF-κB", "conditions": "6 h, added: TNFα", "IC50": "9.8 ± 2.3 µM"}
{"Structure (SMILES)": "Cc1cnc(-c2ccc(-c3ccc(NC(=O)Nc4c(F)cc(F)cc4F)cc3F)c3c2C(=O)NC3)[nH]1", "cell line": "primary AML mononuclear cells", "test": "cell viability, MTS", "IC50": "< 0.2 µM"}
{"Structure (SMILES)": "Cc1c2c(cc3c(-c4ccccc4)cc(=O)oc13)C(=O)CC1(CCCCC1)O2", "cell line": "NIH3T3", "test": "hyaluronan secretion", "conditions": "72 h", "IC50": "250 ± 164 µM"}
{"Structure (SMILES)": "COc1ccccc1-c1nccc(COc2ccccc2C[C@@H](Oc2ncnc3c2c(-c2ccc(OCCN4CCN(C)CC4)c(Cl)c2C)c(-c2ccc(F)cc2)n3C)C(=O)O)n1", "cell line": "NCI-H929", "test": "cell viability, MTT", "conditions": "48 h, 10% CFS", "IC50": "0.032 µM"}
{"Structure (SMILES)": "C=CCc1ccc(OCc2nn(CN3CCCC3)c(=S)o2)c(OC)c1", "cell line": "SK-OV-3", "test": "cell growth or viability, MTT", "conditions": "72 h", "IC50": "16.9 µM"}
{"Structure (SMILES)": "COc1ccc(-c2ccccc2)c(/C=N/NC(=O)c2ccccc2O)c1O", "cell line": "PANC-1", "test": "cell growth or viability", "conditions": "72 h", "IC50": "1.46 µM"}
{"Structure (SMILES)": "COc1cc(C(=O)c2sc3cc(C)ccc3c2NC(C)=O)cc(OC)c1OC", "cell line": "L1210", "test": "cell growth or viability", "conditions": "24 h", "IC50": "0.58 µM"}
{"Structure (SMILES)": "c1ccc(-c2cc3ccccc3[nH]2)cc1", "cell line": "HEK293 NF-κB luciferase reporter", "test": "reporter gene, item: NF-κB", "conditions": "6 h, added: TNFα", "IC50": "25.4 µM and < 50 µM"}
{"Structure (SMILES)": "O=C1c2cccc(O)c2C(=O)c2c(O)cc(CO)cc21", "cell line": "MOLT-3", "test": "cell growth or viability, ATP luminescence", "conditions": "24 h", "IC50": "220 µM"}
